{"data": "Experimental data pooled from the literature", "note": "Lines come from different studies, so protocols differ. ± gives the spread as reported."}
{"SMILES": "Cc1cc(C)n(CCN(CCN)CCCCCCNC(=O)[C@@H](N)Cc2c[nH]cn2)n1.[99Tc+].[C-]#[O+].[C-]#[O+].[C-]#[O+]", "species": "BALB/c nude mice, A549 xenograft", "matrix": "bone", "route": "intravenous", "time": "15 min", "tissue uptake": "0.32 ± 0.03 %IA/g"}
{"SMILES": "CCCC[C@H](NC(=O)CNC(=O)CNC(=O)[C@H](CCCCNC(=O)[C@H](CC(N)=O)NC(=O)C(C)c1ccc(CC(C)C)cc1)NC(=O)CN1CCN(CC(=O)O)CCN(CC(=O)O)CCN(CC(=O)O)CC1)C(=O)N[C@H]1CC(=O)NCCCC[C@@H](C(N)=O)NC(=O)[C@H](Cc2c[nH]c3ccccc23)NC(=O)[C@H](CCCNC(=N)N)NC(=O)[C@@H](Cc2ccccc2)NC(=O)[C@H](Cc2c[nH]cn2)NC1=O (some centres unmarked) [lutetium-177 labelled]", "species": "C57 mice, tumour-bearing", "matrix": "brain", "time": "2 h", "tissue uptake": "0.1 ± 0.02 %ID/g"}
{"SMILES": "O=C(NCC1OC2CCC=CCCC2O1)c1ccc(COCCOCCOCC[18F])cc1 (centres unmarked)", "species": "healthy female BALB/c nude mice", "matrix": "blood", "route": "intravenous", "dose": "7.4 MBq per mouse", "time": "15 min", "tissue uptake": "4.9 ± 0.2 %ID/g"}
{"SMILES": "CCCC[C@H](NC(=O)CCCCCCCNC(=O)CN1CCN(CC(=O)O)CCN(CC(=O)O)CC1)C(=O)N[C@H]1CC(=O)NCCCC[C@@H](C(N)=O)NC(=O)[C@H](Cc2c[nH]c3ccccc23)NC(=O)[C@H](CCCNC(=N)N)NC(=O)[C@@H](Cc2ccccc2)NC(=O)[C@H](Cc2c[nH]cn2)NC1=O [fluorine-18 labelled]", "species": "C57 mice B16-F10 melanoma", "matrix": "heart", "route": "intravenous", "dose": "0.37 MBq", "time": "0.5 h", "tissue uptake": "1.47 ± 0.21 %ID/g"}
{"SMILES": "COc1ccc(Nc2nc(Nc3ccc(OCCOCC[18F])cc3)ncc2Br)cc1", "species": "ICR mice, S180 tumour", "matrix": "intestine", "route": "intravenous", "dose": "370 kBq", "time": "30 min", "tissue uptake": "3.3 ± 0.09 %ID"}
{"SMILES": "CCCC[C@H](NC(=O)CNC(=O)CNC(=O)[C@H](CCCCNC(=O)[C@H](CC(=O)O)NC(=O)C(C)c1ccc(CC(C)C)cc1)NC(=O)CN1CCN(CC(=O)O)CCN(CC(=O)O)CCN(CC(=O)O)CC1)C(=O)N[C@H]1CC(=O)NCCCC[C@@H](C(N)=O)NC(=O)[C@H](Cc2c[nH]c3ccccc23)NC(=O)[C@H](CCCNC(=N)N)NC(=O)[C@@H](Cc2ccccc2)NC(=O)[C@H](Cc2c[nH]cn2)NC1=O (some centres unmarked) [lutetium-177 labelled]", "species": "C57 mice, tumour-bearing", "matrix": "heart", "route": "intravenous", "dose": "0.037 MBq", "time": "0.5 h", "tissue uptake": "2.58 ± 0.41 %ID/g"}
{"SMILES": "O=C(NCC1OC2CCC=CCCC2O1)c1ccc([18F])nc1 (centres unmarked)", "species": "female BALB/c nude mice, LS174T tumour", "matrix": "liver", "route": "intravenous", "time": "60 min", "with": "unmodified CC49 24 h before", "tissue uptake": "1.9 ± 0.5 %ID/g"}
{"SMILES": "CC(C)C[C@H](NC(=O)[C@@H](CCCCNC(=O)[C@@H](Cc1ccccc1)NC(=O)CCCCCCCNC(=O)CN1CCN(CC(=O)O)CCN(CC(=O)O)CCN(CC(=O)O)CC1)NC(=O)[C@H](Cc1ccc(O)cc1)NC(=O)[C@H](CO)NC(=O)[C@H](Cc1c[nH]c2ccccc12)NC(=O)[C@H](Cc1c[nH]cn1)NC(=O)[C@@H]1CCC(=O)N1)C(=O)N[C@@H](CCCNC(=N)N)C(=O)N1CCC[C@H]1C(=O)NCC(N)=O [indium-111 labelled]", "species": "male athymic nude mice, DU-145 prostate cancer xenograft", "matrix": "blood", "route": "intravenous", "dose": "0.037 MBq", "time": "2 h", "tissue uptake": "0.15 ± 0.11 %ID/g"}
{"note": "A few entries again:"}
{"SMILES": "CCCC[C@H](NC(=O)CNC(=O)CNC(=O)[C@H](CCCCNC(=O)[C@H](CC(N)=O)NC(=O)C(C)c1ccc(CC(C)C)cc1)NC(=O)CN1CCN(CC(=O)O)CCN(CC(=O)O)CCN(CC(=O)O)CC1)C(=O)N[C@H]1CC(=O)NCCCC[C@@H](C(N)=O)NC(=O)[C@H](Cc2c[nH]c3ccccc23)NC(=O)[C@H](CCCNC(=N)N)NC(=O)[C@@H](Cc2ccccc2)NC(=O)[C@H](Cc2c[nH]cn2)NC1=O (some centres unmarked) [lutetium-177 labelled]", "species": "C57 mice, tumour-bearing", "matrix": "brain", "time": "2 h", "tissue uptake": "0.1 ± 0.02 %ID/g"}
